Measurements of several laboratories.
Parts stem from different laboratories: compare values within a part only. Substitutions count along the parent as printed.

Block 1 — target: CCNB2, cyclin fold, Cln2 fusion (human); method: yeast growth competition, sequencing; sample: yeast; setting: weak parent motif; relative to: not given; direction: higher = stronger binding
Parent: CABLES2 docking peptide (human); ICAKRSLCAAFSV; partner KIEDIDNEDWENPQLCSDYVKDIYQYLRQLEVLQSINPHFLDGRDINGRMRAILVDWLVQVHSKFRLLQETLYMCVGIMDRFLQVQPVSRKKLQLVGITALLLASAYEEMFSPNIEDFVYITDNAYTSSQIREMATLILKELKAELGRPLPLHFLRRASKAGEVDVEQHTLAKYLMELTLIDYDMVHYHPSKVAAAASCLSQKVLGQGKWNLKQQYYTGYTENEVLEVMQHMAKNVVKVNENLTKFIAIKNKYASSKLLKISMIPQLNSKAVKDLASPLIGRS
`ICAKRSLCAAASV [F11A]` — result for “normalised enrichment score”: 0.565.
`ICAKRALCAAFSV [S6A]` — result for “normalised enrichment score”: 0.414.
Under “normalised enrichment score”, `ICAKRSLCAAFAV [S12A]` is recorded as 0.335.
For `ICAKRSLAAAFSV [C8A]`, “normalised enrichment score” read 0.382.
For `ICAKASLCAAFSV [R5A]`, “normalised enrichment score” read -0.089.

Block 2 — method: universal PBM; form: double-stranded DNA, one strand shown; sample: in vitro; concentration: 600 nM; direction: higher = stronger binding
Target: Sal-like protein 4, full length isoform A (SALL4, Homo sapiens, UniProt Q9UJQ4, residues 1-1053)
UniProt Q9UJQ4, sequence (whole entry, looked up): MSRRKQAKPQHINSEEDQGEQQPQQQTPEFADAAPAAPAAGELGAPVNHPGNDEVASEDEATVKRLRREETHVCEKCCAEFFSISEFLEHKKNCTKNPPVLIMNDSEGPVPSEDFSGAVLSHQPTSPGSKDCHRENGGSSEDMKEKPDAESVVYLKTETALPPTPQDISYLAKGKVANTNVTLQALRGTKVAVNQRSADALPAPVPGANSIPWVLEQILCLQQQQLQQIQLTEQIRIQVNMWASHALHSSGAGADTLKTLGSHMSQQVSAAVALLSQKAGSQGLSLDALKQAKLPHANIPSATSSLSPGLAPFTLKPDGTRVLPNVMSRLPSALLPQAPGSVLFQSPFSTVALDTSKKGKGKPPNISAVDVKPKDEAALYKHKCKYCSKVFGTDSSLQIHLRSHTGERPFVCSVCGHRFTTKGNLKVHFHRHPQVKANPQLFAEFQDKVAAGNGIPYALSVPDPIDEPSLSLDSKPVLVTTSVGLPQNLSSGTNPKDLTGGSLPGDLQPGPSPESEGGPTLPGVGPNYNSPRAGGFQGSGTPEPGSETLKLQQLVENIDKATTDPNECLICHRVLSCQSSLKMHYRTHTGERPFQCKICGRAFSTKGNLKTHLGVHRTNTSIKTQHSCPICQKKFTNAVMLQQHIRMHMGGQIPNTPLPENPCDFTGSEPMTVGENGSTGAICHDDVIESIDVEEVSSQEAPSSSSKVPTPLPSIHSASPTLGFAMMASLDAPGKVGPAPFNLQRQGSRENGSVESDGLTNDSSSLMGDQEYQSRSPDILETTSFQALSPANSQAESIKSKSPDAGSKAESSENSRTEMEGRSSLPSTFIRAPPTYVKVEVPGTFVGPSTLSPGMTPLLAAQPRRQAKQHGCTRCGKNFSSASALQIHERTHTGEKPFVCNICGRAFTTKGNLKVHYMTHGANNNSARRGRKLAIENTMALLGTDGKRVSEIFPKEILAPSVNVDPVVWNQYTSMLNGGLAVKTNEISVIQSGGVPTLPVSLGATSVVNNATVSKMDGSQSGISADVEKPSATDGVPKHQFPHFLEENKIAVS
Setting: 8-mer, flanks averaged, mean of replicates
`CGCTTGAC` has an E-score of -0.172.
The E-score of `CTCCCGGA` is reported as -0.305.
`ACGTCAGC` has an E-score of -0.127.
`GCCAGGCA` has an E-score of -0.223.
`CTTCTGTA` gave an E-score of 0.102.
For `CCCTCCTC`, the E-score was -0.258.
For `AACTTTGA`, the E-score was 0.127.
The E-score of `ACGGGAGT` is reported as -0.097.
With `CAGGTGGG` the E-score was -0.229.

Block 3 — method: RNA Bind-n-Seq; form: RNA; sample: in vitro; concentration: not given; relative to: input RNA pool; direction: higher = stronger binding
Target: RING finger protein unkempt homolog, zinc fingers 1-6, GST-SBP tag (UNK, Homo sapiens, UniProt Q9C0B0, residues 30-357)
Setting: RNA with constant flanks, human and mouse sites, ends assumed
Target sequence (chain): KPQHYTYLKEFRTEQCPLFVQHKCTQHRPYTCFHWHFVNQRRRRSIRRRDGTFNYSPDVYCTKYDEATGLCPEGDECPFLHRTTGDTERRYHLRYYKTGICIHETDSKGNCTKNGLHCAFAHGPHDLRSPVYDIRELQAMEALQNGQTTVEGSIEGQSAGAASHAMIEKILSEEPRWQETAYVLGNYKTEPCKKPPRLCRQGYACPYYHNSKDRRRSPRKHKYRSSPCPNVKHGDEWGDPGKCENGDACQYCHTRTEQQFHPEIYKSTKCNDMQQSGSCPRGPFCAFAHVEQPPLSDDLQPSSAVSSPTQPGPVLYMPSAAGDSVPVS
`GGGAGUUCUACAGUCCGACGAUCUGAAGGUUCCUCUACACUUCUUGGAUUUUGGAACCAUCAAAGAAAUCCAAACUGAGAGGUCUGGACUGGAUGUUCUGUGUAACUUCAAUGCUUUGUGCUAAGUCAAGAGGAACAAAUAUGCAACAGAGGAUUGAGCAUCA` has a bound/input enrichment of 0.148 ratio.
The bound/input enrichment of `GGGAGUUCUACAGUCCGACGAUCGAUGGGAGAAGGAUGUCUUUUCAGAAGCCUAAAGGAACCAUUGAAUAUACUGUUGAAUCAAGGGAUUCUUUGAAUAGCAUAGCCCUGAAAUUUGAUACCACACCCAAUGAACUUGUUCAGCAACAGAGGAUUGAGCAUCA` is reported as 0.246 ratio.
`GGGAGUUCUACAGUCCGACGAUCUUAAUUAAAGAAACAAAGCUUUCUGCUGAACCAGCUCCGGAUUUCUCUGAUUAUUCAGAAAUGGCAAAAGUUGAACAGCCAGUGCCUGAUCAUUCUGAGCUAGUUGAAGAUUCCUCACCUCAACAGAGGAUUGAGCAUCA` gave a bound/input enrichment of 0.129 ratio.
`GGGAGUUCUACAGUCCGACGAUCAAAGCACAAAGAAAUUUGUUUUCCCUAGAGGAUCAGGGUAGAGUGAGGCAUUUCUAAUUGUCUAUCUCUUCCAAAACCAGGGAGUCCCAGCAGGCAGGAGUCCCAGCAGGCAGGCUUGCUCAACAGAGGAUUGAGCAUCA` has a bound/input enrichment of 0.417 ratio.
`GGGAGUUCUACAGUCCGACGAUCCAAAUCCUAGAGAGCCUUUCCACGUCUCCUCUGGCCGAGCCCCCCCACUUUGUUGAACAUAUUAGAUCUACCUUGAUGUUUUUAAAAAAAUUCCCAUCUCCAGAGAAUAUACUCUUUCCUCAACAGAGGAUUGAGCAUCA` has a bound/input enrichment of 1.83 ratio.
`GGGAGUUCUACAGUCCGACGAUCGAACUGUUGAGUUCUUAUGAUGUUGAUAUUAAUCAGAUCAUAAAUACCAUAUCUGAAUGGGUAGUUAUGAUUAAGACCAGAGGUGUUAGGCGACCGGAGUUUCAGCCUCUACUAACUGAGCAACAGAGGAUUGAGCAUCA` has a bound/input enrichment of 0.088 ratio.
For `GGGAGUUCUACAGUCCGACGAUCAGCCUACUCUGCUUAAGGUAUUCUUUUCCUCAAAGAUGCCCUAGUGCCAUGACUUCAGAAAUGUUUAUUACCGUUUUGAAACAGAAGCCAUUCUGCAUAUGCCUUUGAAUUCCUGCCGUCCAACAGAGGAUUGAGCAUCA`, the bound/input enrichment was 0.207 ratio.
The bound/input enrichment of `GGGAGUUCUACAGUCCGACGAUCGGGAAGCUCCCUGGCAGCUGUGUAGUCGCGUGGACACACUGUUCUCACAGACUACAUGCAUACUGUGCUACCUUUGAUGUUCGCUUUCUAAAAAAAGGACUAUGCAGUUUUAUUGUACAGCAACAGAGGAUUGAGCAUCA` is reported as 0.0874 ratio.

Other studies, line by line
`PhoQ, residues 284 288 289 292 302 303 SCKMEA` has a fold induction of 13.9 (PhoP, residues 12 14 15 18 19 QYCSL (Escherichia coli, UniProt P23836); Sort-seq, measured: YFP reporter; E. coli; PhoQ-PhoP variant library, added: 10 µM Mg2+; relative to: high Mg2+ state, higher = stronger signaling).
